{"data": "Measured values pooled from the literature", "note": "Protocols differ between the studies behind these lines."}
{"Compound": "COc1ccc(CCNC(=O)c2cc(Nc3ccccc3)nc3ccccc23)cc1OC", "target or system": "Vero-E6", "assay": "CellTiter-Glo ATP", "setting": "72 h, retest 8-point duplicates", "scale": "baseline: DMSO 0%, hyamine -100%, more negative, more toxic", "endpoint": "maximum response", "value": "-10.9%"}
{"Compound": "CN1CC[C@@H](c2c(O)cc(O)c3c(=O)cc(-c4ccc(C(F)(F)F)cc4Cl)oc23)[C@@H]1CO", "assay": "measured: Neutropenia", "test system": "relapsed B-cell malignancies", "setting": "oral, 200 mg, grade 3-4, intermittent dosing", "endpoint": "patients with adverse event", "value": "0%"}
{"Compound": "C[C@]1(CO)Cc2ncn(-c3ccc(C#N)c(Cl)c3)c2C(=O)O1", "test system": "human, Chinese", "setting": "20 mg single dose", "endpoint": "subjects with drug-related orthostatic hypotension", "value": "16.7%"}
{"Compound": "CC(=O)N1CCC(C(=O)N2CCN3C(=O)c4cc(-c5ccccc5)ccc4NC(=O)C3C2)CC1 (centres unmarked)", "target or system": "Salmonella typhimurium", "test system": "TA1537", "setting": "50 µg/plate", "scale": "baseline: vehicle", "endpoint": "fold increase in revertants", "value": 1.3}
{"Compound": "Cn1cc(-c2ccc3c(c2)CCN3C(=O)Cc2cccc(C(F)(F)F)c2)c2c(N)ncnc21", "target or system": "human coronavirus OC43", "assay": "virus-induced cell killing", "test system": "MRC-5", "setting": "screen", "endpoint": "maximum inhibition", "value": "14.3%"}
{"Compound": "CO[C@H]1C[C@@H]2CC[C@@H](C)[C@@](O)(O2)C(=O)C(=O)N2CCCC[C@H]2C(=O)O[C@H]([C@H](C)C[C@@H]2CC[C@@H](OC(=O)NCCOCCOCCOCCOCCOCCOCCOCCOCCC(=O)N3CCc4cc(Cn5nc(-c6ccc7oc(N)nc7c6)c6c(N)ncnc65)ccc4C3)[C@H](OC)C2)C[C@@H](O)[C@H](C)/C=C(\\C)[C@@H](O)[C@@H](OC)C(=O)[C@H](C)C[C@H](C)/C=C/C=C/C=C/1C", "assay": "phase 1 dose escalation, measured: mucositis", "test system": "advanced solid tumour patients", "setting": "intravenous, 10 mg weekly, any grade", "endpoint": "TRAE incidence", "value": "62.5%"}
{"Compound": "COc1cc2c(Oc3ccc4[nH]c(C)cc4c3F)ccnc2cc1OCC1(N)CC1", "test system": "paediatric recurrent refractory sarcoma", "setting": "concentration not given, whole group", "endpoint": "grade 1 or 2 Triglyceride elevation", "value": "20.6%"}
{"Compound": "CCC1CCCCN1CCCNC(=O)c1sc2nc(C)cc(C)c2c1-n1cccc1 (centres unmarked)", "target or system": "Vero-E6", "assay": "CellTiter-Glo ATP", "setting": "concentration not given, 72 h, retest 8-point duplicates", "scale": "baseline: DMSO 0%, hyamine -100%, more negative, more toxic", "endpoint": "cytotoxicity efficacy", "value": "0%"}
{"Compound": "O=c1ccc2ccccc2o1", "target or system": "HepG2", "assay": "measured: cell count", "setting": "concentration not given, 24 h", "endpoint": "probability of response", "value": "0.35%"}
{"Compound": "O=C1c2c(O)c(=O)ccn2N([C@@H]2c3ccccc3SCc3c2ccc(F)c3F)[C@@H]2COCCN12", "test system": "BALB/c mouse", "setting": "subcutaneous, 1 mg/kg q12h", "endpoint": "trough concentration", "value": "6.54 ng/mL"}
{"Compound": "O=C(NCc1ccccc1Cl)C1CCCN(Cc2cccc(-c3ccc(F)cc3F)c2)C1 (centres unmarked)", "target or system": "Vero-E6", "assay": "CellTiter-Glo ATP", "setting": "72 h, first round 5-point", "scale": "baseline: DMSO 0%, hyamine -100%, more negative, more toxic", "endpoint": "maximum response", "value": "-14.1%"}
{"Compound": "CC(=O)c1c(C)c2cnc(Nc3ccc(C4CCN(CCS(C)(=O)=O)CC4)cn3)nc2n(C2CCCC2)c1=O", "test system": "HR+/HER2- advanced breast cancer patients", "setting": "oral, 100 mg bid, all grades, monotherapy arm", "endpoint": "patients with any TEAE", "value": "100%"}
{"Compound": "CN(C)c1cccc(C(=O)NCC2CCN(c3cc(-c4ccc(Cl)cc4)n[nH]3)CC2)c1", "target or system": "Vero-E6", "assay": "CellTiter-Glo ATP", "setting": "72 h, retest 8-point duplicates", "scale": "baseline: DMSO 0%, hyamine -100%, more negative, more toxic", "endpoint": "maximum response", "value": "-21.7%"}
{"Compound": "CN[C@H]1CN(c2ccc3c(=O)c(C(=O)O)cn(-c4nccs4)c3n2)C[C@@H]1OC", "target or system": "human coronavirus OC43", "assay": "virus-induced cell killing", "test system": "MRC-5", "setting": "maximum over 10 doses", "endpoint": "maximum inhibition", "value": "0%"}
